Results from different studies.
Every numbered part comes from another study and shows a few of its results, in no order. Changes are numbered by the printed parent chain.

Block 1
Target: RNA binding protein fox-1 homolog 2, RRM domain, GST-SBP tag (RBFOX2, Homo sapiens, UniProt O43251-10, residues 100-194)
Method: RNA Bind-n-Seq
Molecule type: RNA
Matrix: in vitro
Concentration: 365 nM
Notes: natural RNA segment, single round, ends assumed
Relative to: no-protein control
Direction: higher = stronger binding
Endpoint: RBNS enrichment (R)
Construct (chain): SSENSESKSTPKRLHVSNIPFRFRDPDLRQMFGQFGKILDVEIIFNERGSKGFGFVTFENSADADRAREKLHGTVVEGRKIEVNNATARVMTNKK
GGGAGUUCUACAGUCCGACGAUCCUUGUGAUUUCUGGCAUCUCUGUGGGGUGAGGUGUUCUGUUACUCUUCACAUUCAAAGACUGUCACCCAUGAACGUCAGACUUUGCAAAGGGGCUCUCUAAGCUGCACUGUGGAAUUCUCGGGUGCCAA: 0.444
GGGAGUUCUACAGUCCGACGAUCUAAUAUAUAUUCAGAAUAAUAAACUCAAGCUGGAGAAAUGAGUCCUGAUAGACUGAAAAUUGAGCAAAUGGAAGAAGAUACAGUAUUGUUUAGAUCAGAAUCAUUAAAAAUGGAAUUCUCGGGUGCCAA: 0.852
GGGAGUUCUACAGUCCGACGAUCUAUAGGGGACUUGAGGGAGUGCCACGUGCUGAACUUGUGAUAUCCUUUGCUAAACCAGAGGAUAAAAAAGGAGAGUAUGAGUACAUAAAAAUCUAUCUUUGAUACAUUUUUGGAAUUCUCGGGUGCCAA: 0.31
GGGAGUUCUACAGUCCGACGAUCUGGACAAAGAACUUGUGGUCUUUUAAAACUGGGACUGAUACUUUUUUGAGAGAGUAUCGUGUCGAAAGUGUGAUGUUCUACCACUUUACCAAUAACUAAUUUUAAAUACAUGGAAUUCUCGGGUGCCAA: 0.62
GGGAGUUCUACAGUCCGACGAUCUGUUUUCAAAUAAAUGUAGAUCUUGAGCAUGAUGUGUUCUGUAUAAUUUUAAUAGAUAAUAAUCAUAAAAUAUGUAGAACAUUUUGUCAAUUUGCAAGAUAAGUUAUGGGUGGAAUUCUCGGGUGCCAA: 2.09
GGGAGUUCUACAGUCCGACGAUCGGGGUCAUUAUCACUAGACGGGGACGGCCGGGUACAGCGGGGCCUCUCUCACAUGGCCCAGUGACCAAUCCCAUCCUCAUCCUCGGAGGAGCCCCGAAGCUUUCCCCGACUGGAAUUCUCGGGUGCCAA: 0.283
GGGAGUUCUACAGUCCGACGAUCUAUCAUGACUGGCUUUGGGAAAAUCAUGAAAAAUUAAGUCUAUCUUAAACUCUGCAGCUUUCAAGCUCAUCUGUUAUGCAUAGCUUUGCACUUCAAAAAAGCUUAAUUAAUGGAAUUCUCGGGUGCCAA: 1.07
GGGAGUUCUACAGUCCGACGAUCUACAAGAGCAGAAUAGUACUUAAAAUCCAAACUGCCGCCCAGAUGGGCUUGUUCUUCAUGCCUAACUUAAUAAUUUUUAAGAGAUUAAAGUGCCAGAUGGAGUUUAAAUAUGGAAUUCUCGGGUGCCAA: 0.314
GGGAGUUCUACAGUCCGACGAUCCAGCUGCCCAAUAUUAACAGUUUUAGUUGGUCUCUAUCUCAAAUAACAGUGUAGGUAUUGGAACCCUUGUAGCCCUUUUGGGGGUCAAACAGGUAUAUGGAUUUAUCAAGUGGAAUUCUCGGGUGCCAA: 0.223
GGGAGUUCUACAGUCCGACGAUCAGAACGGAACCAAAGCUGGGCACCGACUUCUCAUGGAUGCCAGGAACCUGGUCCUCGGGGAAAAAGAGAAGUCACCUUUGGACCUUCGACCUAGCUUUGUCUUUGCCCCAUGGAAUUCUCGGGUGCCAA: 0.926
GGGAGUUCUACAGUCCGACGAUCUUUAUUUGUAUGUCAGUAUUUUUCAUUUGAUUCCCUAUUAGAAUUAAUUUUAAAACUUGAAGACUUCCAGACUUAUCCAACUUAUAAAUAACAUAUUUCUUCAGACUAACUGGAAUUCUCGGGUGCCAA: 0.659
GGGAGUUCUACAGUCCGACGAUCUCCCGAUGACUUUUUAUCUGUAGAAGGUUGACUGUCACUGUCCUCCUUUGUAGCUUCAUAUGUGGCUUUUAAAAUGUCAUUUCUCUAGGGUAUCUUUUUAUAUCACAGCCUGGAAUUCUCGGGUGCCAA: 0.44

Block 2
Target: ABI1, truncated, D143A, DHFR fusion (Arabidopsis thaliana)
Method: DHFR PCA, deep sequencing
Matrix: yeast
Notes: methotrexate growth selection, single substitutions
With: (+)-ABA 710 µM
Relative to: wild-type fitted maximum
Direction: higher = stronger binding
Endpoint: relative binding score
Starting sequence: PYL1, truncated, DHFR fusion (Arabidopsis thaliana); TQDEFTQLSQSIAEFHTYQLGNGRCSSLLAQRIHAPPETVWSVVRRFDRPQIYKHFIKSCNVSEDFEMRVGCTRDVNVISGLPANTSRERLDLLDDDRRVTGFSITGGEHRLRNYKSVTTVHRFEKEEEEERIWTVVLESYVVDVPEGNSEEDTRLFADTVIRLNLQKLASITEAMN; partner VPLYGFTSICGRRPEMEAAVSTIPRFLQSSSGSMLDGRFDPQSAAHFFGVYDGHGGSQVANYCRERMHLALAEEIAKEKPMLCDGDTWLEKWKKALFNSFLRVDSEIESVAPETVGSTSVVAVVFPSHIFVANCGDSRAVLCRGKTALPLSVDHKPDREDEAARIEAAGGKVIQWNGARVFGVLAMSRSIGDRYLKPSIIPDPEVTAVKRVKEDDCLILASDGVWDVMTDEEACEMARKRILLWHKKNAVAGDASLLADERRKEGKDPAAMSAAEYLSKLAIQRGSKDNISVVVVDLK
F15S: 85.7%
Y115D: 3.33%
G81T: 71.2%
M68Y: 95.1%
V62E: 52%
E38T: 95.3%
T135F: -1.26%
M176Q: 103%
V142N: 90.2%
A13D: 95.4%
F56A: 54.3%
V145I: 98.9%
R69N: 93.1%
E129H: 108%
T154R: 1.18%

Block 3
Target: Histone acetyltransferase KAT6A, winged helix 1, GST fusion (KAT6A, Homo sapiens, UniProt Q92794, residues 1-85)
Method: protein binding microarray
Molecule type: double-stranded DNA, one strand shown
Matrix: in vitro
Concentration: not given
Notes: 8-mer, flanks averaged, mean of 2 arrays, mostly near background
Relative to: not given
Direction: higher = stronger binding
Endpoint: E-score
Construct (chain): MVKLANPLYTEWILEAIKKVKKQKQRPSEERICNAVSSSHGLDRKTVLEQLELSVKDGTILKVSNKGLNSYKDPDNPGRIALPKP
ACGGTGGA: 0.0233
GATTTATA: -0.108
GCTAAAGC: -0.00808
AAAATCCG: 0.0923
CGGGGGGA: -0.00431
CCTGAACG: -0.0821
CTCGGGTC: 0.15
CAATGGCG: 0.218
ATGTATAC: -0.116
GGCACGTA: -0.00121
GGGACCCA: -0.0174
CGAAGGGC: 0.18
CCAAAGAG: -0.219
AGGGTAGA: -0.0571
GTGGAGCA: -0.111
AAGCTCAT: -0.235

Block 4
Target: Interferon regulatory factor 5, full length, phosphomimetic (IRF5, Homo sapiens, UniProt Q13568-2, residues 1-514, S451D/S453D/S456D/S462D)
Method: protein-binding microarray
Molecule type: double-stranded DNA, one strand shown
Matrix: in vitro
Concentration: 940 nM top
Notes: 60-bp whole probe
With: salmon DNA 0.4 mg/ml
Relative to: random background probes
Direction: higher = stronger binding
Endpoint: fitted relative affinity
All sequences stand within: GCCTAGCAC … GTCTTGATTCGCTTGACGCTGCTG
TTAGGACTTCTTCTCCTTTAGTGCTAG: 0.42 z-score
TTAGGTATCGGTATCGGGTAGTGCTAG: 9.64 z-score
TCAACTTTCCACTTGTCACTGTGCTAG: 1.29 z-score
GAGGGTTTCCTTCTCCTGACGTGCTAG: 1.34 z-score
TTACATTTCGGGTTTCGATTAGTGCTA: 6.57 z-score
AGAGAGAGTGAGGAACAACAGTGCTAG: -0.094 z-score
TTAGGAATCGGGTATCGGTTAGTGCTA: 3.77 z-score
TTAAGTTTCCTTTTCCTTTAGTGCTAG: 2.52 z-score
GACGAACTGAGGACTGGAGACGTGCTA: -0.448 z-score
TTAGATCTCCGTTTCGATTAGTGCTAG: 3.04 z-score
TCACTTCTGGACTGTTTGACTGTGCTA: 0.619 z-score
CTTCTCCTCTAGGTTCTCTGAGTGCTA: 0.139 z-score
GACGGTTTCCTTTCCCAGACGTGCTAG: 2.06 z-score
TTCTGAGCCTGGGTGGATGGGTGCTAG: -0.767 z-score
TCATTTCTGTGTCACAGACTGTGCTAG: 0.461 z-score
TAAGGTTTCGGTATCGGTTAGTGCTAG: 12.9 z-score
GACGGTTTCGATTTTCGGGACGTGCTA: 9.28 z-score
TTAGGTTTCCTACTGTTTTAGTGCTAG: 0.816 z-score
TTAGGTCCCCTTCTCCTTTAGTGCTAG: 0.381 z-score
GACGTTATCCTACTGCTGACGTGCTAG: 0.275 z-score
TTCTGAACCATTTTGGTTTTGTGCTAG: -0.028 z-score

Block 5
Target: CREBL2, bZIP domain (human)
Method: DHFR protein complementation
Matrix: yeast
Notes: single substitutions, most at no-binding floor
Relative to: wild-type JUN-FOS pair
Direction: higher = stronger binding
Endpoint: binding fitness
Starting sequence: JUN, bZIP domain (human); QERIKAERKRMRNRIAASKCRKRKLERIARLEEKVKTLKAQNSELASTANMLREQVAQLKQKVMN; partner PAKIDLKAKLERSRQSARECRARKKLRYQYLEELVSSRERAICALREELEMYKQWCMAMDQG
L38C: -1.55 natural log
M51G: -1.53 natural log
K39F: -1.54 natural log
S43D: -1.4 natural log
A29C: -1.51 natural log
A49H: -1.53 natural log
K34V: -1.51 natural log
E44K: -1.57 natural log
S43T: -1.53 natural log
K39C: -1.42 natural log
L38T: -1.53 natural log
L45T: -1.52 natural log
Q41G: -1.49 natural log
N42E: -1.39 natural log
I28K: -1.54 natural log
S47Y: -1.56 natural log
S47P: -1.55 natural log
V35M: -1.57 natural log
L31N: -1.51 natural log
R30Q: -1.55 natural log
A57L: -1.41 natural log
T48C: -1.42 natural log
T48Q: -1.24 natural log
S47W: -1.48 natural log
L31D: -1.57 natural log

Mixed results
PhoQ, residues 284 288 289 292 302 303 TYGVAM
fold induction (PhoP, residues 12 14 15 18 19 NIMAP (Escherichia coli, UniProt P23836); Sort-seq, refers to: YFP reporter; E. coli; PhoQ-PhoP variant library, with: 10 µM Mg2+; relative to: high Mg2+ state, higher = stronger signaling): 1.09

Excerpt of the above (block 5):
M51G: -1.53 natural log
K39F: -1.54 natural log
S43D: -1.4 natural log
A29C: -1.51 natural log
A49H: -1.53 natural log
K34V: -1.51 natural log
E44K: -1.57 natural log
S43T: -1.53 natural log
K39C: -1.42 natural log
L38T: -1.53 natural log
